Measurements of several laboratories.
Numbered parts are unrelated; each lists some results of a single study.
Chain of UniProt P42336 (whole entry, unmodified, looked up): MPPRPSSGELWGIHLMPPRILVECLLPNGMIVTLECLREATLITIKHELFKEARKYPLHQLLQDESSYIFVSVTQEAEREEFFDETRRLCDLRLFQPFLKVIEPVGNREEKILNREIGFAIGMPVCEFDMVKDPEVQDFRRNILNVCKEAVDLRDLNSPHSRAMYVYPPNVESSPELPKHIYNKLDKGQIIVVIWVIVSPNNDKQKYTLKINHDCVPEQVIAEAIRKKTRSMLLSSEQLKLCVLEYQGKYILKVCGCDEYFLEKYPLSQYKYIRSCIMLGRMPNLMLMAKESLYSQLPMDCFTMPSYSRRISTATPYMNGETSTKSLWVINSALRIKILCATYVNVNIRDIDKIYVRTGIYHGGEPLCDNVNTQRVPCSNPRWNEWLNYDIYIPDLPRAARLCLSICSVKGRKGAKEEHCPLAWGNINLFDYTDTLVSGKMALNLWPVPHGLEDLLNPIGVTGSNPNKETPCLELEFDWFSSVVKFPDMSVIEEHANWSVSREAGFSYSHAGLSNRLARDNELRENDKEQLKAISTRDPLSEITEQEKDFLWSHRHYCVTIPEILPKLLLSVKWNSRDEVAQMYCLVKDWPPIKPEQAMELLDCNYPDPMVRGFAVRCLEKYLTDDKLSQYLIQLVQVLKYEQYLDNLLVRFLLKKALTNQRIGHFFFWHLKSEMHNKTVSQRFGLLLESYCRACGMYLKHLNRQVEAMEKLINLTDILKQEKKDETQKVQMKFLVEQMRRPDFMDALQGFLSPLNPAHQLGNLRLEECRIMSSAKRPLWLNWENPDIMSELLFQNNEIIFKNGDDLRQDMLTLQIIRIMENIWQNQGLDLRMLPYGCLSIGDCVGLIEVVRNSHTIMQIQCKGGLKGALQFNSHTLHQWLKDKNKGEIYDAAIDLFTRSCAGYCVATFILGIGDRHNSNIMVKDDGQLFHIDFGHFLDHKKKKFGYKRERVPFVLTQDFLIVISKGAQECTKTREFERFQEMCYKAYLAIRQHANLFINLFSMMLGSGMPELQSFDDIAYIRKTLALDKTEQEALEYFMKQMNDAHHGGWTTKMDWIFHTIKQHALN
Chain of UniProt P54764 (whole entry, looked up): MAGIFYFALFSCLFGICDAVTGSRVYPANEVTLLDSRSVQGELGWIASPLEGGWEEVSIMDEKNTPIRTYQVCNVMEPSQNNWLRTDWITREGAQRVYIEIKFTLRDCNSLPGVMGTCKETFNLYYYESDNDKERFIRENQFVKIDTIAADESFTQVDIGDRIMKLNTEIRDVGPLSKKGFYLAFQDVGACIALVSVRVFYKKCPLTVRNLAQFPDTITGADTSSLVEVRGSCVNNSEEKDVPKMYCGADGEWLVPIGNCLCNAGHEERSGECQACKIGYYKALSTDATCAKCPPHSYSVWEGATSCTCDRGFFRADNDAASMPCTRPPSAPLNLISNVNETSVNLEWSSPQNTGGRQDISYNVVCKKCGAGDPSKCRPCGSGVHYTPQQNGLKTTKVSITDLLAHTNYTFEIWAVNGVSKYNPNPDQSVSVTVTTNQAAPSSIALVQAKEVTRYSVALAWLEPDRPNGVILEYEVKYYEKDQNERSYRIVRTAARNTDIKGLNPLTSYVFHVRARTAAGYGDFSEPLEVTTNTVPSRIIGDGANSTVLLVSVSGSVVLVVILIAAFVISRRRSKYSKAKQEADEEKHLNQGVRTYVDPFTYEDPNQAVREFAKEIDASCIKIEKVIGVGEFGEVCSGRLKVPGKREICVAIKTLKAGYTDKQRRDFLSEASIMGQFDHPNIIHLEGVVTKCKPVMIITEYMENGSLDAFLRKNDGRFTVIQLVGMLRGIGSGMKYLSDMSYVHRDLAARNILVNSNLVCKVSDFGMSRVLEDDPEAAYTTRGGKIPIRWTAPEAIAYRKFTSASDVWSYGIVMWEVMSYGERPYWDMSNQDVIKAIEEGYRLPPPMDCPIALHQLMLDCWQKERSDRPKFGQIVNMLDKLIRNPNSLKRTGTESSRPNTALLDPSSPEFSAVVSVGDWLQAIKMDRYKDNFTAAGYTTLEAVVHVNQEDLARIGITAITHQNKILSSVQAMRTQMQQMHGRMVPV
Chain of UniProt Q8NI60 (whole entry, looked up): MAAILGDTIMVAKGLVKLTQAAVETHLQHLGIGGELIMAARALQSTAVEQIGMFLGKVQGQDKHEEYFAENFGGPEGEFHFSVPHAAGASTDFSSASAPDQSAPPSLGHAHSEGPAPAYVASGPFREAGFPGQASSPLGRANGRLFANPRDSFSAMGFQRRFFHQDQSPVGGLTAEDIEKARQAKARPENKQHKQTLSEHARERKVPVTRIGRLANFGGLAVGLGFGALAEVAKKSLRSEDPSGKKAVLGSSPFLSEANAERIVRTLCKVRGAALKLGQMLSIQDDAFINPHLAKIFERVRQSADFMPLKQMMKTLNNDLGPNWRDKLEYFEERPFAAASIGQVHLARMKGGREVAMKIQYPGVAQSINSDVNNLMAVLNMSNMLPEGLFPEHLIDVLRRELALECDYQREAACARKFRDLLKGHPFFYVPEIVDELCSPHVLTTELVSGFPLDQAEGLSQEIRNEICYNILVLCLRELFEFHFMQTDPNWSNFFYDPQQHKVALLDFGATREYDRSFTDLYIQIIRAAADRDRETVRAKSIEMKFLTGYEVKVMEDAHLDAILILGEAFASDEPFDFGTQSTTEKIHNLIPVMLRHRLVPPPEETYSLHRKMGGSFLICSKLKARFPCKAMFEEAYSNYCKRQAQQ
Chain of UniProt Q86UE8 (whole entry, looked up): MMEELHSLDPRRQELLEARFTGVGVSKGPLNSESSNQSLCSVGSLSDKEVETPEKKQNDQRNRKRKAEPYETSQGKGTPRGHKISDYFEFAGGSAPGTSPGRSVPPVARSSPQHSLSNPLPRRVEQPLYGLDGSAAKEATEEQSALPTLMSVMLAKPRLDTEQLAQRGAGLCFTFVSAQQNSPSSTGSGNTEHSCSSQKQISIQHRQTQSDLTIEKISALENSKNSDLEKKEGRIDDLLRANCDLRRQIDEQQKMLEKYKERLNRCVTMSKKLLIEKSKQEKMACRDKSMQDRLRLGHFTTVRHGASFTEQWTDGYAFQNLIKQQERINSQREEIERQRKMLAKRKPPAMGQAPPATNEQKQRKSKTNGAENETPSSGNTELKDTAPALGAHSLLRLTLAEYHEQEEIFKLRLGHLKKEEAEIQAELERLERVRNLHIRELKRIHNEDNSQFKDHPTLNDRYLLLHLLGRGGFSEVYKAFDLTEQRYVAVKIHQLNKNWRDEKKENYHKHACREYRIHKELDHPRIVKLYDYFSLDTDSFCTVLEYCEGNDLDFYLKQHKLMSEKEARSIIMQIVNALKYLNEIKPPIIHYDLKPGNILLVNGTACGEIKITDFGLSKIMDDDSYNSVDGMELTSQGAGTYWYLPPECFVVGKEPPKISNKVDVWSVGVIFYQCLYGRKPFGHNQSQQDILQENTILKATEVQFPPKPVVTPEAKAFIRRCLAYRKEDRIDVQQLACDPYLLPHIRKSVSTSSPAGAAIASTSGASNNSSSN
Chain of UniProt Q96NX5 (whole entry, looked up): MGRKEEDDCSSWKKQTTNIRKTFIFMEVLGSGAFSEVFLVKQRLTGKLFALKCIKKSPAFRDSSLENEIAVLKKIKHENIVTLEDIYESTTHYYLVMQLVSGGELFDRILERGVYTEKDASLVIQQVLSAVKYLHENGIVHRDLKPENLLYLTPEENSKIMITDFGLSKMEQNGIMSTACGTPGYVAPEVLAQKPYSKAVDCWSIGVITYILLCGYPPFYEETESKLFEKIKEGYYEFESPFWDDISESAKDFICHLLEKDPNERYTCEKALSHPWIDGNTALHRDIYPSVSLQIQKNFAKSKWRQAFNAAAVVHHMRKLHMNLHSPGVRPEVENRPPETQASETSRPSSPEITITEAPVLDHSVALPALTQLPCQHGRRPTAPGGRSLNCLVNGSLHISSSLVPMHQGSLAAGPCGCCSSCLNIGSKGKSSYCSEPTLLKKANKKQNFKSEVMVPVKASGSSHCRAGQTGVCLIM
Chain of UniProt Q9UK32 (whole entry, looked up): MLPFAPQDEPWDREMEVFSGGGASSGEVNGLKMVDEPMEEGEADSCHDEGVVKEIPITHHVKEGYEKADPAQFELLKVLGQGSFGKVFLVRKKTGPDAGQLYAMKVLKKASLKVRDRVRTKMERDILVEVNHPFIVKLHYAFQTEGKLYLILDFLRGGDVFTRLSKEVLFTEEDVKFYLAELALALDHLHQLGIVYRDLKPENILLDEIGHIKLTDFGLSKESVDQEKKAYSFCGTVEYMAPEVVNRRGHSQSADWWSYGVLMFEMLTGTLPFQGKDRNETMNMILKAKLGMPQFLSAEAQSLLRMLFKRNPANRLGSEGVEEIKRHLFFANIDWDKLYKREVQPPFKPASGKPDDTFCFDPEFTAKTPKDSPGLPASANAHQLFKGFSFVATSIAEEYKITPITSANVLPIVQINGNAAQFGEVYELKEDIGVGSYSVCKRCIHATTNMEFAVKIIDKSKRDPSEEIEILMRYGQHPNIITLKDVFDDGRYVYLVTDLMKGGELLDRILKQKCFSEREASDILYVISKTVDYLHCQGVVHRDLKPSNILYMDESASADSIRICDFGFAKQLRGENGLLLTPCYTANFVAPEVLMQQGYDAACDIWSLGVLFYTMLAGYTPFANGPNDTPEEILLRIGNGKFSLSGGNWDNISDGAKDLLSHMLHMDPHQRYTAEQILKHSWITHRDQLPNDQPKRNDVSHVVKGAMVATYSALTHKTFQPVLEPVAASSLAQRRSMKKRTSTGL

Block 1
Cell line: Huh-7
Tested at: 10 µM
Time: 24 h
Structure (SMILES)	viability [%]
CCCN(CCC)C(=O)C(CCC(=O)O)NC(=O)c1ccccc1 (stereo not shown)	102
CN(C)CCCN1c2ccccc2Sc2ccc(Cl)cc21	105
COCCCC/C(=N\OCCN)c1ccc(C(F)(F)F)cc1	99
C1CCN2C[C@@H]3C[C@@H](CN4CCCC[C@@H]34)[C@H]2C1	98.4

Block 2
Structure (SMILES): O=S(=O)(NC1CCC(c2cc(F)ccc2F)(S(=O)(=O)c2ccc(Cl)cc2)CC1)C(F)(F)F (stereo not shown)
Observed: cell-free assay
Method: competition with immobilised ligand
Tested at: 1 µM
target	remaining binding [%]
Serine/threonine-protein kinase tousled-like 2 (TLK2, Homo sapiens, UniProt Q86UE8)	100
Tyrosine-protein kinase ZAP-70 (ZAP70, Homo sapiens, UniProt P43403)	100
Calcium/calmodulin-dependent protein kinase type 1G (CAMK1G, Homo sapiens, UniProt Q96NX5)	100
Phosphatidylinositol 4,5-bisphosphate 3-kinase catalytic subunit alpha isoform (PIK3CA, Homo sapiens, UniProt P42336, M1043I)	100
Protein kinase C epsilon type (PRKCE, Homo sapiens, UniProt Q02156)	52
Mast/stem cell growth factor receptor Kit, autoinhibited (KIT, Homo sapiens, UniProt P10721)	100
Mitogen-activated protein kinase kinase kinase 12 (MAP3K12, Homo sapiens, UniProt Q12852)	100
Tyrosine-protein kinase FRK (FRK, Homo sapiens, UniProt P42685)	100
Atypical kinase COQ8A, mitochondrial (COQ8A, Homo sapiens, UniProt Q8NI60)	99
Ephrin type-A receptor 4 (EPHA4, Homo sapiens, UniProt P54764)	95
NUAK family SNF1-like kinase 1 (NUAK1, Homo sapiens, UniProt O60285)	83
Tyrosine-protein kinase ABL1, phosphorylated (ABL1, Homo sapiens, UniProt P00519, H396P)	100
Ribosomal protein S6 kinase alpha-6, N-terminal kinase domain (RPS6KA6, Homo sapiens, UniProt Q9UK32)	83
Cyclin-dependent kinase 18 (CDK18, Homo sapiens, UniProt Q07002)	100
Phosphatidylinositol 4,5-bisphosphate 3-kinase catalytic subunit alpha isoform (PIK3CA, Homo sapiens, UniProt P42336, I800L)	98

Block 3
Target: Tyrosine-protein kinase ITK/TSK (ITK, Homo sapiens, UniProt Q08881)
Observed: enzyme activity
Mode: inhibitor
Tested at: 0.5 µM
Baseline: control
Construct (Q08881 1-620): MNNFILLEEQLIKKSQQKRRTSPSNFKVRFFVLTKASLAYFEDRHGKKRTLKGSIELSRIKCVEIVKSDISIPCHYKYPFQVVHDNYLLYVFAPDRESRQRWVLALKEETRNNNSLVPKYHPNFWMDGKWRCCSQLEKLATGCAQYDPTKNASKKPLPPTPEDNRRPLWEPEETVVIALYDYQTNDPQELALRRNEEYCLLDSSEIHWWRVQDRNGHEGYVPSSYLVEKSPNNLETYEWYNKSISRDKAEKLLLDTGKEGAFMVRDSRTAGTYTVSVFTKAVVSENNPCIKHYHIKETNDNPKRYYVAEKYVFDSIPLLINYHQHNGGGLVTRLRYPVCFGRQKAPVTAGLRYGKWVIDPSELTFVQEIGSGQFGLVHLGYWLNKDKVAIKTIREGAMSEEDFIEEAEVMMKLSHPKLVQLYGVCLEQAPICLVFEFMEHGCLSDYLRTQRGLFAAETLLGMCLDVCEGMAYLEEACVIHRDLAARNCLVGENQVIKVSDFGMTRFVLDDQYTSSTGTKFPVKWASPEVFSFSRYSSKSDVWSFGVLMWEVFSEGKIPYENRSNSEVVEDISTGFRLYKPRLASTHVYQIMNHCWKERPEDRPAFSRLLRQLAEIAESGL
SMILES	remaining activity [%]
NC(=O)c1ccc(-c2nc(-c3ccc4c(c3)OCCO4)c(-c3ccccn3)[nH]2)cc1	104
O=C1c2ccccc2-c2nc3nnnn3nc21	71.5
c1cc(-c2cnn3cc(-c4ccc(OCCN5CCCCC5)cc4)cnc23)ccn1	39.9
CNc1cc2c(Nc3cccc(Br)c3)ncnc2cn1	92.5
CCN(CC)CCCCN1c2ccccc2Oc2ccc(Cl)cc21	101

Block 4
Host: mouse
Matrix: microsomes or S9
Tested at: 2 µM
Time: 0.5 h
SMILES	remaining compound [%]
CN(C)c1cccc2c(S(=O)(=O)NC(CC(=O)O)C(=O)O)cccc12 (stereo not shown)	82.1
CS(=O)(=O)N[C@H]1CC[C@H](Nc2ncnc3[nH]cc(-c4cc(Cl)c(O)c(Cl)c4)c23)CC1	87.1
CS(=O)(=O)NCC1COCCN1C(=O)Nc1ccc2cnccc2c1 (stereo not shown)	59.2
CN(C)CCOc1cc(N2C(=O)c3ccccc3S2(=O)=O)ccc1Cl	24.9
Cc1ccc(-n2nncc2-c2ccc(O)cc2O)cc1	70.7
COc1cc(=O)n2c(c1C(=O)Nc1cccc(F)c1C)CCCC2	0.0819

Single results of other studies
SMILES	system	conditions	quantity	result
CC(C)n1cnc(-c2ccc(F)cc2)c1-c1ncc(C(=O)Nc2ccc(N3CCN(C)CC3)cc2)[nH]1	human, idiopathic pulmonary fibrosis	60 mg once daily, trial, treatment-emergent	patients with ECG T wave abnormal	0%

Some of these lines once more (block 4):
SMILES	remaining compound [%]
CS(=O)(=O)N[C@H]1CC[C@H](Nc2ncnc3[nH]cc(-c4cc(Cl)c(O)c(Cl)c4)c23)CC1	87.1
CS(=O)(=O)NCC1COCCN1C(=O)Nc1ccc2cnccc2c1 (stereo not shown)	59.2
CN(C)CCOc1cc(N2C(=O)c3ccccc3S2(=O)=O)ccc1Cl	24.9
